Measured values from different studies.
Each line is one published result; not all experiments were run side by side.
EGFR: Epidermal growth factor receptor (EGFR, Homo sapiens, UniProt P00533)

For `Cc1cccc(O[C@H]2CCC[C@@H](C(C)CNCc3ccncc3)C2)c1` (relative stereo), the inhibition was 1% (EGFR; kinase activity, kinome panel screening; 10 µM).
With `Cc1[nH]nc2c1N=C(c1ccccc1Cl)c1cnc(N3CCOCC3)cc1N2` the inhibition was 58.3% (EGFR; enzyme activity, inhibitor; 0.5 µM).
The inhibition of `C=CC(=O)Nc1cccc(-c2cnc3[nH]cc(C(=O)NC(C)(C)C)c3n2)c1` is reported as 8% (EGFR; enzyme activity, inhibitor; 0.1 µM).
For `CN1CC[C@@H](COc2cnc(C#N)cc2-c2ccn3nc(NC(=O)C4CC4)cc3c2)C1`, the inhibition was 1% (EGFR; enzyme activity, inhibitor; 1 µM).
For `Cc1ccc(-c2nn(-c3ccc(S(C)(=O)=O)cc3)cc2/C=N/N=C2/NC(=O)CS2)cc1`, the inhibition was 70.5% (Epidermal growth factor receptor (EGFR, Homo sapiens, UniProt P00533, L858R); kinase activity, inhibitor; 1 µM).
For `NC(=O)C[C@H]1CCc2sc3ncnc(O[C@H]4CC[C@H](N5CCOCC5)CC4)c3c21`, the inhibition was 15% (EGFR; enzyme activity, inhibitor; 10 µM).
`COc1ccc(C(=O)/C=C/c2ccccc2-c2c[nH]c3ccc(C#N)cc23)c(O)c1` gave an inhibition of 13% (Epidermal growth factor receptor (EGFR, Homo sapiens, UniProt P00533, L858R/T790M); enzyme activity, inhibitor; 20 µM).
`CN1CCN(Cc2ccc(-c3ccc(CO[C@H]4CCC[C@@H]4NC(=O)c4cc(-c5cnn(C)c5)cnc4N)cc3)cc2)CC1` has an inhibition of 6% (EGFR; enzyme activity, inhibitor; 0.1 µM).
The inhibition of `C=CC(=O)Nc1cc(-c2nn(C3CCN(CCNC(=O)[C@H](C)CCC45CC6CC(CC(C6)C4)C5)CC3)c3ncnc(N)c23)ccc1Oc1ccccc1` is reported as 48.3% (EGFR; inhibitor, KiNativ profiling; biochemical; 2 µM).
For `C[C@H]1CN(C(=O)c2cn(-c3ccnc(N)n3)c3cc(C#CC4(O)CCCCC4)ccc23)CCN1`, the inhibition was -4% (EGFR; enzyme activity, inhibitor, FRET; 1 µM).
For `Cn1ccc2cc(-n3c(=O)[nH]c4sc5c(c4c3=O)CCCC5)ccc21`, the inhibition was -8% (EGFR; radioligand binding; 10 µM, with: EGF).
The inhibition of `COc1cc(OC)c(F)c(/C=C/c2cnc3ccn(S(=O)(=O)c4cn(CCF)cn4)c3n2)c1F` is reported as 0% (EGFR; 100 nM).
